Published values from different studies.
Each line is one published result; not all experiments were run side by side. Numbers after ± are the reported error.
NECTIN4: NECTIN4 32-349 (Homo sapiens, UniProt Q96NY8)
Sequence of UniProt Q96NY8 (whole entry, looked up): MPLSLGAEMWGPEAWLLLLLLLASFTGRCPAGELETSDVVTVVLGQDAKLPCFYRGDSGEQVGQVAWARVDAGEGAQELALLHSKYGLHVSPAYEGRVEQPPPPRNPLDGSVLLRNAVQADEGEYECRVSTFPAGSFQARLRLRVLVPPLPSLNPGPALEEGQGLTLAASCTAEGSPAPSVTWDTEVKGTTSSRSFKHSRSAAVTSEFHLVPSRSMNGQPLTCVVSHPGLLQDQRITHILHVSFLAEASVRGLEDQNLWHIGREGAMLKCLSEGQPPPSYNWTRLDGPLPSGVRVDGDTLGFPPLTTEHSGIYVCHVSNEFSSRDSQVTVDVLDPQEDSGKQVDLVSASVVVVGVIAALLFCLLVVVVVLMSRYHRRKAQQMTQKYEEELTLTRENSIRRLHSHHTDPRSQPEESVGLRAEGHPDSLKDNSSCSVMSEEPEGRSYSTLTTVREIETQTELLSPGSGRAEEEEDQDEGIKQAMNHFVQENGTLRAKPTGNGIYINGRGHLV
B1: STAMBP 244-424 (Homo sapiens, UniProt O95630); sequence looked up; chain NSESIPTIDGLRHVVVPGRLCPQFLQLASANTARGVETCGILCGKLMRNEFTITHVLIPKQSAGSDYCNTENEEELFLIQDQQGLITLGWIHTHPTQTAFLSSVDLHTHCSYQMMLPESVAIVCSPKFQETGFFKLTDHGLEEISSCRQKGFHPHSKDPPLFCSCSHVTVVDRAVTITDLR
B2: ITGAV/ITGB5 ectodomain, soluble, clasped; chain 1 FNLDVDSPAEYSGPEGSYFGFAVDFFVPSASSRMFLLVGAPKANTTQPGIVEGGQVLKCDWSSTRRCQPIEFDATGNRDYAKDDPLEFKSHQWFGASVRSKQDKILACAPLYHWRTEMKQEREPVGTCFLQDGTKTVEYAPCRSQDIDADGQGFCQGGFSIDFTKADRVLLGGPGSFYWQGQLISDQVAEIVSKYDPNVYSIKYNNQLATRTAQAIFDDSYLGYSVAVGDFNGDGIDDFVSGVPRAARTLGMVYIYDGKNMSSLYNFTGEQMAAYFGFSVAATDINGDDYADVFIGAPLFMDRGSDGKLQEVGQVSVSLQRASGDFQTTKLNGFEVFARFGSAIAPLGDLDQDGFNDIAIAAPYGGEDKKGIVYIFNGRSTGLNAVPSQILEGQWAARSMPPSFGYSMKGATDIDKNGYPDLIVGAFGVDRAILYRARPVITVNAGLEVYPSILNQDNKTCSLPGTALKVSCFNVRFCLKADGKGVLPRKLNFQVELLLDKLKQKGAIRRALFLYSRSPSHSKNMTISRGGLMQCEELIAYLRDESEFRDKLTPITIFMEYRLDYRTAADTTGLQPILNQFTPANISRQAHILLDCGEDNVCKPKLEVSVDSDQKKIYIGDDNPLTLIVKAQNQGEGAYEAELIVSIPLQADFIGVVRNNEALARLSCAFKTENQTRQVVCDLGNPMKAGTQLLAGLRFSVHQQSEMDTSVKFDLQIQSSNLFDKVSPVVSHKVDLAVLAAVEIRGVSSPDHVFLPIPNWEHKENPETEEDVGPVVQHIYELRNNGPSSFSKAMLHLQWPYKYNNNTLLYILHYDIDGPMNCTSDMEINPLRIKISSLQTTEKNDTVAGQGERDHLITKRDLALSEGDIHTLGCGVAQCLKIVCQVGRLDRGKSAILYVKSLLWTETFMNKENQNHSYSLKSSASFNVIEFPYKNLPIEDITNSTLVTTNVTWGIQPAPMPV; chain 2 GLNICTSGSATSCEECLLIHPKCAWCSKEDFGSPRSITSRCDLRANLVKNGCGGEIESPASSFHVLRSLPLSSKGSGSAGWDVIQMTPQEIAVNLRPGDKTTFQLQVRQVEDYPVDLYYLMDLSLSMKDDLDNIRSLGTKLAEEMRKLTSNFRLGFGSFVDKDISPFSYTAPRYQTNPCIGYKLFPNCVPSFGFRHLLPLTDRVDSFNEEVRKQRVSRNRDAPEGGFDAVLQAAVCKEKIGWRKDALHLLVFTTDDVPHIALDGKLGGLVQPHDGQCHLNEANEYTASNQMDYPSLALLGEKLAENNINLIFAVTKNHYMLYKNFTALIPGTTVEILDGDSKNIIQLIINAYNSIRSKVELSVWDQPEDLNLFFTATCQDGVSYPGQRKCEGLKIGDTASFEVSLEARSCPSRHTEHVFALRPVGFRDSLEVGVTYNCTCGCSVGLEPNSARCNGSGTYVCGLCECSPGYLGTRCECQDGENQSVYQNLCREAEGKPLCSGRGDCSCNQCSCFESEFGKIYGPFCECDNFSCARNKGVLCSGHGECHCGECKCHAGYIGDNCNCSTDISTCRGRDGQICSERGHCLCGQCQCTEPGAFGEMCEKCPTCPDACSTKRDCVECLLLHSGKPDNQTCHSLCRDEVITWVDTIVKDDQEAVLCFYKTAKDCVMMFTYVELPSGKSNLTVLREPECGNTPN
B3: swi6 (Schizosaccharomyces pombe, UniProt P40381); chain MKKGGVRSYRRSSTSKRSVIDDDSEPELPSMTKEAIASHKADSGSSDNEVESDHESKSSSKKLKENAKEEEGGEEEEEDEYVVEKVLKHRMARKGGGYEYLLKWEGYDDPSDNTWSSEADCSGCKQLIEAYWNEHGGRPEPSKRKRTARPKKPEAKEPSPKSRKTDEDKHDKDSNEKIEDVNEKTIKFADKSQEEFNENGPPSGQPNGHIESDNESKSPSQKESNESEDIQIAETPSNVTPKKKPSPEVPKLPDNRELTVKQVENYDSWEDLVSSIDTIERKDDGTLEIYLTWKNGAISHHPSTITNKKCPQKMLQFYESHLTFRENE
B4: RSPO4/IgG1 Fc RSPO4 32-137 Q65R/N297Q; CPT2 conjugated via azide click; chain GGNCTGCIICSEENGCSTCQQRLFLFIRREGIRRYGKCLHDCPPGYFGIRGQEVNRCKKCGATCESCFSQDFCIRCKRQFYLYKGKCLPTCPPGTLAHQNTRECQGGGGGSGGGGSGGGGS
B5: DLL4 27-400 G28S/F107L/I143F/H194Y/L206P/N257P/T271L/F280Y/S301R/Q305P (Homo sapiens, UniProt Q9NR61); sequence looked up; chain SSVFQLQLQEFINERGVLASGRPCEPGCRTFFRVCLKHFQAVVSPGPCTFGTVSTPVLGTNSFAVRDDSSGGGRNPLQLPLNFTWPGTFSLIIEAWHAPGDDLRPEALPPDALISKFAIQGSLAVGQNWLLDEQTSTLTRLRYSYRVICSDNYYGDNCSRLCKKRNDYFGHYVCQPDGNPSCLPGWTGEYCQQPICLSGCHEQNGYCSKPAECLCRPGWQGRLCNECIPHPGCRHGTCSTPWQCLCDEGWGGLYCDQDLNYCTHHSPCKNGATCRNSGPRSYTCTCRPGYTGVDCELELSECDSNPCRNGGSCKDQEDGYHCLCPPGYYGLHCEHSTLSCADSPCFNGGSCRERNQGANYACECPPNFTGSNCE
B6: TIMP2 27-153 (Homo sapiens, UniProt P16035); sequence looked up; chain CSCSPVHPQQAFCNADVVIRAKAVSEKEVDSGNDIYGNPIKRIQYEIKQIKMFKGPEKDIEFIYTAPSSAVCGVSLDVGGKKEYLIAGKAEGDGKMHITLCDFIVPWDTLSTTQKKSLNHRYQMGCE
B7: CD93 25-347 (Homo sapiens, UniProt Q9NPY3); chain DTEAVVCVGTACYTAHSGKLSAAEAQNHCNQNGGNLATVKSKEEAQHVQRVLAQLLRREAALTARMSKFWIGLQREKGKCLDPSLPLKGFSWVGGGEDTPYSNWHKELRNSCISKRCVSLLLDLSQPLLPSRLPKWSEGPCGSPGSPGSNIEGFVCKFSFKGMCRPLALGGPGQVTYTTPFQTTSSSLEAVPFASAANVACGEGDKDETQSHYFLCKEKAPDVFDWGSSGPLCVSPKYGCNFNNGGCHQDCFEGGDGSFLCGCRPGFRLLDDLVTCASRNPCSSSPCRGGATCVLGPHGKNYTCRCPQGYQLDSSQLDCVDVD
Sequence of UniProt P12314 (whole entry, looked up): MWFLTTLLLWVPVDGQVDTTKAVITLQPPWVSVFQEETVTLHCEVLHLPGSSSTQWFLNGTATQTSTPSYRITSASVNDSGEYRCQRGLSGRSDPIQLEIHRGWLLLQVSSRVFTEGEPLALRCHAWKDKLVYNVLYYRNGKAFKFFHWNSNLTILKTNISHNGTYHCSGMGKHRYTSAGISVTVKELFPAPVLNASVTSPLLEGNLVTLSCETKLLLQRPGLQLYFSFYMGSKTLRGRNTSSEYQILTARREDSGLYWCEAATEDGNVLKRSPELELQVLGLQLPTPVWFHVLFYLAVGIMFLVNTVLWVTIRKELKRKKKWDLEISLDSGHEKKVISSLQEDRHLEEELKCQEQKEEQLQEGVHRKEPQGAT
Sequence of UniProt P01009 (whole entry, looked up): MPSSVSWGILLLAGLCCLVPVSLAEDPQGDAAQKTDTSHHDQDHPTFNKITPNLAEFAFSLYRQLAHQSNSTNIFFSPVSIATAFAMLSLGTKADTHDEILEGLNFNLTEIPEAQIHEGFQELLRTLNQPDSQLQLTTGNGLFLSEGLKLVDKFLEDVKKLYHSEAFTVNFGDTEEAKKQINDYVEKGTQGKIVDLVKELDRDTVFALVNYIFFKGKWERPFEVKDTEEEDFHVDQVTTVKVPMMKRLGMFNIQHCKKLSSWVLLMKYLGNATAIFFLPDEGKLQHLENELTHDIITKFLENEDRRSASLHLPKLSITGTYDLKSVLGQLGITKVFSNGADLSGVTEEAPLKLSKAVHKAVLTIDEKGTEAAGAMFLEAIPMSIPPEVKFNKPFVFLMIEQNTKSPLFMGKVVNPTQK
Sequence of UniProt P03956 (whole entry, looked up): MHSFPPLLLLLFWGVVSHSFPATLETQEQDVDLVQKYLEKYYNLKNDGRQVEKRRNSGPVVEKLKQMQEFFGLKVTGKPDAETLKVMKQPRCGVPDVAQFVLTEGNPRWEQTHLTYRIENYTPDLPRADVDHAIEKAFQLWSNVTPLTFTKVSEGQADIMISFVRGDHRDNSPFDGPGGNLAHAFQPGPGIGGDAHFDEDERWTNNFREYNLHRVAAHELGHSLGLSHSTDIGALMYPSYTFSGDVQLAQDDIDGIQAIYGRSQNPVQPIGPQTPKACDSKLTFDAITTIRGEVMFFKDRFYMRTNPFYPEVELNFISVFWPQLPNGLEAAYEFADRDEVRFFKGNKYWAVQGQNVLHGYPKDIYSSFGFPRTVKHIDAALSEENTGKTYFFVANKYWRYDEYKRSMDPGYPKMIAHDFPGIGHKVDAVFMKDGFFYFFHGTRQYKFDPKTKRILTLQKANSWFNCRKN
Sequence of UniProt Q9NWS0 (whole entry, looked up): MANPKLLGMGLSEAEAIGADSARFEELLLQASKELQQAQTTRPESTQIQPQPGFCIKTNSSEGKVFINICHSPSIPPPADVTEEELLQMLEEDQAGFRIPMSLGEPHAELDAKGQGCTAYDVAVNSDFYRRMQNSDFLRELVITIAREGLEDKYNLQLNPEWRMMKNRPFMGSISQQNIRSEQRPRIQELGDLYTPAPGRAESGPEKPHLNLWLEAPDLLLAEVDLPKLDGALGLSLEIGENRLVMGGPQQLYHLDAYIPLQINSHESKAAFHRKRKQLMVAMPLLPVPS
Sequence of UniProt P10515 (whole entry, looked up): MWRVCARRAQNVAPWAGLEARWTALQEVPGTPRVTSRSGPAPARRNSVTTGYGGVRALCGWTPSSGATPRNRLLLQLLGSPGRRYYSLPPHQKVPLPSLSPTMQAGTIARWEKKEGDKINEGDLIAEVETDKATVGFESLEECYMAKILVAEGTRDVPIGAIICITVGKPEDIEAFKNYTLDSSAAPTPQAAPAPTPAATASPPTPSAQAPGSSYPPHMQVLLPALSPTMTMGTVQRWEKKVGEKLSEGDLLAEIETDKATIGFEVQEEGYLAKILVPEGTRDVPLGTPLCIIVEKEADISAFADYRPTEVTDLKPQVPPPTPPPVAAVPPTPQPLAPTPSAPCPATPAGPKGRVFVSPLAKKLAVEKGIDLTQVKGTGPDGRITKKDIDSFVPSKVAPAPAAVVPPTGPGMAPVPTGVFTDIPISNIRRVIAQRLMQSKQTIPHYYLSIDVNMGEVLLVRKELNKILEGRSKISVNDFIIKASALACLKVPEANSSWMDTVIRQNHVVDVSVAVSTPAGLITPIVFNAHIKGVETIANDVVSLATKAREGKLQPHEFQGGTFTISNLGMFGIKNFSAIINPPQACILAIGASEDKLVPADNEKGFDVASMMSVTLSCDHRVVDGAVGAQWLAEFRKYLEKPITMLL
Sequence of UniProt Q99496 (whole entry, looked up): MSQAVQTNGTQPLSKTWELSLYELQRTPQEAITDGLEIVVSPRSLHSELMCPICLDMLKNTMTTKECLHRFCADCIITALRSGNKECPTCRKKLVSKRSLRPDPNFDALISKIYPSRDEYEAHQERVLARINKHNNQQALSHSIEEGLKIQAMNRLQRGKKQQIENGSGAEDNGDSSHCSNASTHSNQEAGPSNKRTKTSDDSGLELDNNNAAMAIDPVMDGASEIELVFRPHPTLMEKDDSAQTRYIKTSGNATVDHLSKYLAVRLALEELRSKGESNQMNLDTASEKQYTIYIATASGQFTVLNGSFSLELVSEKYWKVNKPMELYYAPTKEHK
Sequence of UniProt P30411 (whole entry, looked up): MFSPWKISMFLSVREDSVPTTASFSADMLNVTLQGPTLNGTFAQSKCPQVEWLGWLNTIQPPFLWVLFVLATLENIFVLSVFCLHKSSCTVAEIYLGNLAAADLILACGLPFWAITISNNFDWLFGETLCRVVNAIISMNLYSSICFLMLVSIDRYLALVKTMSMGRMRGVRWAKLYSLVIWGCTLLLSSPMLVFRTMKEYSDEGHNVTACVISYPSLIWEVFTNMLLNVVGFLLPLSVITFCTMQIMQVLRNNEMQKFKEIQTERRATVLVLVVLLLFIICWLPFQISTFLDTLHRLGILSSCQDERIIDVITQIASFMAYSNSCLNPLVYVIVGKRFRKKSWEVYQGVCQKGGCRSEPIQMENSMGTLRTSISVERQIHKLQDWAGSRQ
Sequence of UniProt Q12749 (whole entry, looked up): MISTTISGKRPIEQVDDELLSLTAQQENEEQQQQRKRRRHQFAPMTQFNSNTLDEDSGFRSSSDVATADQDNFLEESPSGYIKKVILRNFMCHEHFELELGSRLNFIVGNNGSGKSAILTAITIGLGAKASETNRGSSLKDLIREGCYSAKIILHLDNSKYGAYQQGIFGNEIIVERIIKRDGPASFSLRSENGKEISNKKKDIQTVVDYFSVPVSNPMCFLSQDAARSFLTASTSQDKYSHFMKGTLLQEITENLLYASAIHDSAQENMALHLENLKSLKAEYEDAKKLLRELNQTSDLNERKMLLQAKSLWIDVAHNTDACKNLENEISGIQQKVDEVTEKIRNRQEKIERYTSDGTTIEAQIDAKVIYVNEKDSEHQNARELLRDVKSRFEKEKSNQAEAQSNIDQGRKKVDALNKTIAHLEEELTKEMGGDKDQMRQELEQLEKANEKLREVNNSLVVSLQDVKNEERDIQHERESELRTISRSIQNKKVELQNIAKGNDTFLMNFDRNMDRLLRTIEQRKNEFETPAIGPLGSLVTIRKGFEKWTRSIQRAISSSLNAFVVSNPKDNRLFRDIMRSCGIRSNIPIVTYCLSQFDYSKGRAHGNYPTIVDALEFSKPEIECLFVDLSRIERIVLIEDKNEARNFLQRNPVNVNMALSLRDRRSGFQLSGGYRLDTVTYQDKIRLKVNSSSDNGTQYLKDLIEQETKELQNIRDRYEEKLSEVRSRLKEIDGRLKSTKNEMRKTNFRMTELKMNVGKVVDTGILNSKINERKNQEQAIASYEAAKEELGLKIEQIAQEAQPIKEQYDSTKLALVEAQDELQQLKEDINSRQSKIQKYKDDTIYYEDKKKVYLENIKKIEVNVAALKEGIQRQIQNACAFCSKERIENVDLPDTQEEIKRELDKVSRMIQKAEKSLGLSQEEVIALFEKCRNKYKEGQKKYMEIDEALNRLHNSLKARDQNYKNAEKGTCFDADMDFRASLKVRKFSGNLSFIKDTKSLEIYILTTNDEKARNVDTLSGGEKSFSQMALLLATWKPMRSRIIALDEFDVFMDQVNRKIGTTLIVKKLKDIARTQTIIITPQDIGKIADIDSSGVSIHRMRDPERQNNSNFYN
Sequence of UniProt P01189 (whole entry, looked up): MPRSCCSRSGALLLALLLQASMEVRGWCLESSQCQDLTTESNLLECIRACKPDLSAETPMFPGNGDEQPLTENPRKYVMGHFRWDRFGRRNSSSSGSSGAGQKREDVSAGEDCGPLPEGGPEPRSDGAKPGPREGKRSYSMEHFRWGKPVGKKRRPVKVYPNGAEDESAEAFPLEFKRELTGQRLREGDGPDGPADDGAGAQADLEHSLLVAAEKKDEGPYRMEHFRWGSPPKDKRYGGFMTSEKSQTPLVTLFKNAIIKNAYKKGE
Sequence of UniProt O95182 (whole entry, looked up): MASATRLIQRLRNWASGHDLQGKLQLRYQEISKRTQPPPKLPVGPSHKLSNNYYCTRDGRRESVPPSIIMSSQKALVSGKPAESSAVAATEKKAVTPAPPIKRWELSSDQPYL

For `DYNLRB1/DYNLL1/DYNLT1/DYNC1LI2/DYNC1I2/DYNC1H1 dynein-1 complex (Homo sapiens)`, the Ka was greater than 1.6e+06 M⁻¹ (BICD2/HOOK3 chimera BicD2 CC, Hook3 LIC-BD 1-98, HaloTag; pull-down).
For `B1 (STAMBP 244-424)`, the kcat was 1.4 s⁻¹ (Lys63-linked diubiquitin (Homo sapiens, UniProt P0CG48); Lys63 diubiquitin cleavage, SDS-PAGE; 20-100 µM, 20 °C).
For `ACTA1 (Gallus gallus, UniProt P68139)`, “detachment rate without load” read 124 s⁻¹ (MYH1 (Oryctolagus cuniculus, UniProt A0A5F9CQ93); laser three-bead trap; Bell-bond fit, added Pi 0 mM, with: ATP 100 µM).
With `ADCYAP1 PACAP (Homo sapiens)` the pKB was 83.2 nM (VIPR2 (Homo sapiens, UniProt P41587); cAMP accumulation, antagonist; Cos7; VPAC2, with: VIP).
`BMI1 (Homo sapiens, UniProt P35226)`: interaction screen “cross-linked” (RNF2 (Homo sapiens, UniProt Q99496); cross-linking MS; hits only).
For `B2`, the EC50 was 8.5 nM (cyclic RGD peptide, disulfide-cyclized, aminocaproic acid, FITC; fluorescence polarisation; with: CaCl2 1 mM).
With `B3 (swi6)` the dwell time was 2.2 s (hht1 histone H3, K9 methylation (Schizosaccharomyces pombe, UniProt P09988); single-molecule imaging; in cells).
`NSE5 (Saccharomyces cerevisiae, UniProt Q03718)` — result for interaction screen: “cross-linked” (SMC6 (Saccharomyces cerevisiae, UniProt Q12749); cross-linking MS; hits only).
`YIRLYDYHNC (peptide; linear, N-acetyl, C-terminal amide)` gave an IC50 of less than 10000 nM (MAGEA4 (UniProt P43358); competition with ligand, TR-FRET; peptide).
The cAMP response of `HSDGTFTSELSRLREGARLQRLLQGLV (SCT mature (Homo sapiens, UniProt P09683))` is reported as 11.1 pEC50 (SCTR (Homo sapiens, UniProt P47872); cAMP, agonist, HTRF; peptide, CHO-SecR).
`FGG (Homo sapiens, UniProt P02679)` — result for cross-linked residues: “K177 to K191” (HTR2A (Homo sapiens, UniProt P28223); cross-linking MS; with: DSSO).
With `SAAAAGDDDDLYN (CDC48A 797-809 (Arabidopsis thaliana))` the ΔH was -7.41 ± 0.191 kcal/mol (PUX2 157-273 (Arabidopsis thaliana, UniProt Q9ZU93); ITC; peptide).
`B4` has a cytotoxic IC50 of 0.3 nM (LGR5 (Homo sapiens, UniProt O75473); cell viability; Fc fusion, 293T-LGR5; 5 days).
For `B5`, the affinity enhancement was 670 fold (NOTCH2 221-530 (Homo sapiens, UniProt Q04721); SPR; reference: WT, higher = stronger binding).
`SERPINA1 (Homo sapiens, UniProt P01009)`: “second-order inhibition rate constant” 60 M⁻¹ s⁻¹ (Thrombin mature, plasma-derived (Homo sapiens); inhibition kinetics, amidolytic activity; with: heparin 0.1 µM).
The EC50 of `alpha-MSH mature (UniProt P01189)` is reported as 11.5 nM (Mc4r (Mus musculus, UniProt P56450); cAMP production, agonist, BRET EPAC sensor; HEK293; 3 min).
With `MBL-A mature, hydroxylysine, hydroxyproline in collagen (Rattus norvegicus, UniProt P19999)` the koff was 0.00217 s⁻¹ (C1S fragment (Homo sapiens); SPR; with: CaCl2 140 mM).
With `CBX3 (Homo sapiens, UniProt Q13185)` the binding reduction was 23% (SUV39H1 catalytic domain, C-terminal truncation (Homo sapiens); pull-down; 6 µM, with: chaetocin 0.1 µM; higher = less binding).
For `EGF mature`, the ΔH was 23 ± 0.089 kcal/mol (EGFR Fc fusion fragment (Homo sapiens); ITC).
Under cross-linked residues, `ALB (Homo sapiens, UniProt P02768)` is recorded as “K305 to K1490” (MAP1A (Homo sapiens, UniProt P78559); cross-linking MS; with: DSSO).
For `LMNA (Homo sapiens, UniProt P02545)`, cross-linked residues read “K144 to K156” (LMNB1 (Homo sapiens, UniProt P20700); cross-linking MS; cells; with: iqPIR).
`ACPFGCMKAWSWPIWCTNK (Bicycle 65 bicyclic peptide; C-terminal amide/TATA scaffold, three cysteines cyclised)` has a Ki of 45.2 nM (NECTIN4; fluorescence polarisation; peptide).
`A2M (Homo sapiens, UniProt P01023)` — result for cross-linked residues: “K1133 to K436” (PAK6 (Homo sapiens, UniProt Q9NQU5); cross-linking MS; with: DSSO).
`DLDSDDEY (TELO2 488-494 (Homo sapiens); pS491)`: “molecule per partner” 0.7 (PIH1D1 51-180 (Homo sapiens, UniProt Q9NWS0); ITC; peptide).
For `ACPFGCMKNWSWPIWCTNA (Bicycle 74 bicyclic peptide; C-terminal amide/TATA scaffold, three cysteines cyclised)`, the Ki was 25.6 nM (NECTIN4; fluorescence polarisation; peptide).
For `B6 (TIMP2 27-153)`, the Ki was 0.42 ± 0.03 nM (MMP1 100-269 (Homo sapiens, UniProt P03956); enzyme activity, inhibitor, fluorogenic peptide cleavage assay).
`FGB (Homo sapiens, UniProt P02675)`: cross-linked residues “K77 to K131” (PARVA (Homo sapiens, UniProt Q9NVD7); cross-linking MS; with: DSSO).
`Trastuzumab IgG1 (Homo sapiens)` has a kon of 250000 M⁻¹ s⁻¹ (FCGR1A (Homo sapiens, UniProt P12314); SPR).
The Gαt bound of `RGS9/GNB5 (Bos taurus)` is reported as 1% (GNAT1 (Bos taurus, UniProt P04695); co-IP; reference: total).
`bradykinin (UniProt P01042)` has an EC50 of 3.13 nM (BDKRB2 (Homo sapiens, UniProt P30411); G12 BRET response; BDKRB2 cells).
`ING1 PHD finger (Arabidopsis thaliana)` — result for “molecule per partner”: 1.15 ± 0.01 (H3 residues 1-10, K4me1; ITC).
`Mcm2-7, DyLight 650 on Mcm6 N-terminus (Saccharomyces cerevisiae)` — result for “events reaching high recruitment state”: 152 of 162 events (ORC unphosphorylated, DyLight 550 on Orc6 (Saccharomyces cerevisiae); smFRET).
`B7 (CD93 25-347)` has an affinity decrease of greater than 10 fold (IGFBP7 30-159 Y80A (Homo sapiens, UniProt Q16270); ITC; 25 °C; reference: wild-type IGFBP7, higher = weaker binding).
For `NDUFS3 (Homo sapiens, UniProt O75489)`, cross-linked residues read “K56 to K102” (NDUFA7 (Homo sapiens, UniProt O95182); cross-linking MS; cells; with: iqPIR).
`KIF5B fragment (Mus musculus)` has a landing rate of 0.23 µm⁻¹ min⁻¹ (TUBA1A/TUBB microtubules, 20% rhodamine-labelled tubulin (Sus scrofa); TIRF microscopy; single-molecule).
`FGA (Homo sapiens, UniProt P02671)` — result for cross-linked residues: “K437 to K119” (DIPK2B (Homo sapiens, UniProt Q9H7Y0); cross-linking MS; with: DSSO).
`PDHX (Homo sapiens, UniProt O00330)`: cross-linked residues “K488 to K473” (DLAT (Homo sapiens, UniProt P10515); cross-linking MS; cells; with: iqPIR).

Some of these lines once more:
`BMI1 (Homo sapiens, UniProt P35226)`: interaction screen “cross-linked” (RNF2 (Homo sapiens, UniProt Q99496); cross-linking MS; hits only).
For `B2`, the EC50 was 8.5 nM (cyclic RGD peptide, disulfide-cyclized, aminocaproic acid, FITC; fluorescence polarisation; with: CaCl2 1 mM).
With `B3 (swi6)` the dwell time was 2.2 s (hht1 histone H3, K9 methylation (Schizosaccharomyces pombe, UniProt P09988); single-molecule imaging; in cells).
